# Results collected from several papers.
# Values joined by “and” are separate records of one study, mostly repeats; a detail may differ. ± gives the spread as reported.
Compound,assay,test system,setting,scale,endpoint,result
O=C([O-])CN1CCN(CC(=O)[O-])CCN(CC(=O)NCC2CCC(C(=O)NC(Cc3ccc4ccccc4c3)C(=O)NCCCCC(NC(=O)NC(CCC(=O)O)C(=O)O)C(=O)O)CC2)CCN(CC(=O)[O-])CC1.[44Sc+3] (stereo not drawn),"PET/CT dosimetry, OLINDA/EXM","human, kidneys",,,residence time,0.121 h and 0.215 h and 0.361 h
O=C(CCc1ccc(CNC(C(=O)OC2CCCC2)C2CCCCC2)cn1)NO (stereo not drawn),,healthy male volunteers,dose not given,,tolerability,not toxic
COCCOCCOCCOCCOCCOCCOCCOCCC(=O)NCCCc1cc2cc3nc(cc4[nH]c(cc5nc(c(OC)c1[nH]2)C(=O)C5(C)C)cc4CCc1ccc(C(=O)O)cc1)CC3(C)C,,water with 5% DMF,room temperature,,Qy emission maximum,679 nm
CCC1CNC(CC)CN(CC(=O)O)C(CC)CN(CC(=O)O)C(CC)CN1 (stereo not drawn),pH-potentiometric titration,,"25 °C, 0.1 M KCl",,sum log K3 + log K4,8
Cn1c(=O)oc2ccc(-c3ccc(CC(C#N)NC(=O)C4CNCCCO4)c(F)c3)cc21 (stereo not drawn),measured: blood triglycerides increased,human,"40 mg single dose, fasted",,subjects with TEAE,25%
COc1cc(-c2nc3ccccc3s2)cc(CN(Cc2ccccn2)Cc2ccccn2)c1O,UV-vis spectrophotometric titration,"MeOH-water, MeOH up to 20%",50 µM,,pKa3,8.46
Cc1cc(C(=O)N[C@@H](CO)CC(C)C)ccc1CO,LC-MS,"Sprague-Dawley rat, both sexes, rat liver microsomes","10 µM of parent drug, 10 min, pH 7.4, together with: NADPH",baseline: parent drug at time zero,metabolite peak area,0.8%
COc1cc(N(C)CCN(C)C)c(NC(=O)CCSCC(NC(C)=O)C(=O)O)cc1Nc1nccc(-c2cn(C3CC3)c3ccccc23)n1 (stereo not drawn),radio-HPLC,"human, urine","dose not given, 0 to 48 h, sample holds 2.97% dose",baseline: sample radioactivity,share of radioactivity,0.39%
COc1cc(-c2nc3ccccc3s2)cc(CN2CCN(CC(=O)OC(C)(C)C)CCN(CC(=O)OC(C)(C)C)CC2)c1O,UV-Vis pH titration,,"25 °C, ionic strength 0.1 M NaCl",,pKa4,11.8
COc1ccc(-c2cc(=O)c3c(O)cc(O[C@@H]4O[C@H](CO[C@@H]5O[C@@H](C)[C@H](O)[C@@H](O)[C@H]5O)[C@@H](O)[C@H](O)[C@H]4O)cc3o2)cc1,freeze-thaw stability,rat plasma,"3 days, low QC, 3 freeze-thaw cycles",,measured concentration,7.02 ± 0.73 ng/mL
C[C@H](CN(C)Cc1ccccc1)NC(=O)c1ccc(-c2noc(C(F)(F)[18F])n2)cc1,PET imaging,"female Sprague-Dawley rats, hippocampus","intravenous, 30 min",,tissue uptake,1.9 ± 0.27 SUV
O=C([O][Ti+2][O]C(=O)c1ccc(P(c2ccccc2)c2ccccc2)cc1)c1ccc(P(c2ccccc2)c2ccccc2)cc1.[Cl][Au].[Cl][Au].c1cc[cH-]c1.c1cc[cH-]c1,"ICP-MS, measured: gold","NOD.CB17-Prkdc scid/J mice, blood or plasma","7.5 mg/kg, after first injection",,elimination rate constant,0.1 h⁻¹
NCC(=O)N1CCC[C@H]1C(=O)N1C[C@H](O)C[C@H]1C(=O)O,potentiometric titration,water,"37 °C, 0.15 mol/dm3 NaCl",,pKa3,7.25
COc1cc2c(cc1OC)CN(CCCCn1ccc3cc(OCC[18F])ccc31)C2,,male ICR mice,"intravenous, 280 kBq, 120 min post-injection",,pancreas uptake,43.4 ± 6.87 %ID/g
CCCC[C@@H]1NC(=O)[C@@H](NC(=O)[C@H](CCC(=O)O)NC(=O)CNC(=O)CN2CCN(CC(=O)O)CCN(CC(=O)O)CCN(CC(=O)O)CC2)CCCCNC(=O)C[C@@H](C(N)=O)NC(=O)[C@H](C(C)C)NC(=O)[C@@H]2CCCN2C(=O)[C@H](CCCNC(=N)N)NC(=O)CNC(=O)[C@H](Cc2c[nH]c3ccccc23)NC(=O)[C@H](CCCNC(=N)N)NC(=O)[C@@H](Cc2ccccc2)NC(=O)[C@H](Cc2c[nH]cn2)NC(=O)[C@H](CCC(=O)O)NC1=O [gallium-67 labelled],,"C57 mice, B16/F1 flank melanoma","intravenous, 2 h",baseline: tumour over skin,tissue ratio,51.7
COc1cc(-c2nc3ccccc3s2)cc(CN2Cc3cccc(n3)CN(CC(=O)O)Cc3cccc(n3)C2)c1O,"UV-vis spectrophotometric titration, measured: HL/L- equilibrium",MeOH/water with NaCl,"50 µM, room temperature, NaCl 0.1 M, MeOH ≤20% v/v",,pKa4,9.98
O=c1nc(NO)ccn1[C@@H]1O[C@H](CO)[C@@H](O)[C@H]1O,"RT-PCR, measured: CYP2B1","rat, arthritis model, liver","oral, 80 mg/kg twice daily, 5 days",baseline: untreated arthritic rats,mRNA level,0.4 fold
CCN(CC)c1ccc2c(-c3ccc(S(=O)(=O)NCCNC(=O)CN4CCN(CC(=O)[O-])CCN(CC(=O)O)CCN(CC(=O)[O-])CC4)cc3S(=O)(=O)[O-])c3ccc(=[N+](CC)CC)cc-3oc2c1.[64Cu+2],,"athymic nude mice, U-87 MG glioma xenograft","intravenous, 0.5 h post-injection",,tumour uptake,6.54 ± 1.5 %ID/g
COCCOCCOCCOc1ccc(/C=C/c2c(I)c(C)c3n2[B-](F)(F)[N+]2=C(C)C(I)=C(C)C2=C3c2cc(OC)cc(OC)c2)cc1,,dichloromethane,,,Stokes shift,384 cm⁻¹
C=C(C)C(=O)Nc1ccc(-c2c(-c3ccc(Oc4nccc(C)n4)cc3)c3c(N)ncnc3n2C)cc1,,"beagle dog, plasma",intravenous,,Vd,1.2 L/kg
C[N+](C)(C)CC(CC(=O)[O-])OC(=O)CCC(=O)Nc1ccn([C@@H]2O[C@H](CO)[C@@H](O)C2(F)F)c(=O)n1 (stereo partly drawn),,extracted rat plasma,"3200.00 ng/mL, 8 h, 10 °C, autosampler stability, high QC",,measured concentration,3130 ± 138 ng/mL
N=C(N)NCCC[C@@H]1NC(=O)[C@H](CCCCNC(=O)CON=C[C@H](F)[C@@H](O)[C@H](O)[C@H](O)CO)NC(=O)[C@@H](Cc2ccc(O)cc2)NC(=O)[C@H](CC(=O)O)NC(=O)CNC1=O [fluorine-18 labelled],,"nude mice, U-87 MG xenograft, tumour","intravenous, 0.5 h",,tumour uptake,0.63 ± 0.13 %ID/g
COc1ccc([C@@H]2CC(=O)c3c(O)cc(O[C@@H]4O[C@H](CO[C@@H]5O[C@@H](C)[C@H](O)[C@@H](O)[C@H]5O)[C@@H](O)[C@H](O)[C@H]4O)cc3O2)cc1O,,rat plasma,"15.62 ng/mL, 7 days, -80 °C, long-term storage",,measured concentration,17.1 ± 0.38 ng/mL
NC12CNCCNCC(NCc3ccc(CNC(=O)CCCC(=O)NCc4ccc(-c5nncnn5)cc4)cc3)(CNCCNC1)CNCCNC2.[64Cu+2],OLINDA dosimetry,small intestine,"48 h pretargeting interval, together with: huA33-TCO pretargeting",,mean absorbed dose,0.039 rad/mCi
COc1c2c(cc3oc(C)cc(=O)c13)O[C@H](C(C)(C)O[C@@H]1O[C@H](CO)[C@@H](O)[C@H](O)[C@H]1O)C2,,simulated gastric fluid with pepsin,"2 h, pH 1.2, 37 °C",,transformation rate,2.13%
OCc1cn(Cc2ccc(-c3noc(-c4ccc(OCC[18F])c(C(F)(F)F)c4)n3)cc2)nn1,,"rat, blood","intravenous, 30 min",,tracer uptake,0.42 %ID/g
CC(C)[C@H](NC(=O)CNC(=O)[C@H](CCC(N)=O)NC(=O)[C@H](C)N)C(=O)O,LC-MS/MS,"human, male, plasma","intravenous, 20 mg/kg three times daily, day 1, first dose, 10 min infusion, geometric mean",,clearance,667 mL/min/kg
CC(C)c1cnc(-c2cc(Cl)ccc2F)cc1Nc1ccncc1C(=O)NC(CO)CO,measured: Anemia,solid tumour patients,"oral, dose not given, phase I monotherapy",,treatment-related serious adverse events,4.8%
CC1=CC(C)(C)N=C2C=CC(=O)C=C12,LC-MS/MS,"cattle, Holstein, liver","oral, 50 mg/kg complete feed of ethoxyquin, 42 days, highest value, after glucuronidase",,residue concentration,20 ng/g
C=C1C[C@@]23CC[C@H]4[C@@](C)(CCC[C@@]4(C)C(=O)O[C@@H]4O[C@H](CO)[C@@H](O)[C@H](O)[C@H]4O)[C@@H]2CC[C@]1(O[C@@H]1O[C@H](CO[C@H]2O[C@H](CO)[C@@H](O)[C@H](O)[C@H]2O)[C@@H](O)[C@H](O)[C@H]1O[C@@H]1O[C@H](CO)[C@@H](O)[C@H](O)[C@H]1O)C3,thermogravimetric analysis,,second mass loss stage,,onset temperature,280 to 290 °C

# Excerpt of the above:
Compound,assay,test system,setting,scale,endpoint,result
O=C([O-])CN1CCN(CC(=O)[O-])CCN(CC(=O)NCC2CCC(C(=O)NC(Cc3ccc4ccccc4c3)C(=O)NCCCCC(NC(=O)NC(CCC(=O)O)C(=O)O)C(=O)O)CC2)CCN(CC(=O)[O-])CC1.[44Sc+3] (stereo not drawn),"PET/CT dosimetry, OLINDA/EXM","human, kidneys",,,residence time,0.121 h and 0.215 h and 0.361 h
O=C(CCc1ccc(CNC(C(=O)OC2CCCC2)C2CCCCC2)cn1)NO (stereo not drawn),,healthy male volunteers,dose not given,,tolerability,not toxic
COCCOCCOCCOCCOCCOCCOCCOCCC(=O)NCCCc1cc2cc3nc(cc4[nH]c(cc5nc(c(OC)c1[nH]2)C(=O)C5(C)C)cc4CCc1ccc(C(=O)O)cc1)CC3(C)C,,water with 5% DMF,room temperature,,Qy emission maximum,679 nm
